Measurements of several laboratories.
Each numbered part is a random draw from the data of one study; scales do not carry over between parts. Changes are numbered by the printed parent chain.

Series 1
Target: Ras GTPase-activating protein-binding protein 1, full length (G3BP1, Homo sapiens, UniProt Q13283)
Sequence of UniProt Q13283 (whole entry, looked up): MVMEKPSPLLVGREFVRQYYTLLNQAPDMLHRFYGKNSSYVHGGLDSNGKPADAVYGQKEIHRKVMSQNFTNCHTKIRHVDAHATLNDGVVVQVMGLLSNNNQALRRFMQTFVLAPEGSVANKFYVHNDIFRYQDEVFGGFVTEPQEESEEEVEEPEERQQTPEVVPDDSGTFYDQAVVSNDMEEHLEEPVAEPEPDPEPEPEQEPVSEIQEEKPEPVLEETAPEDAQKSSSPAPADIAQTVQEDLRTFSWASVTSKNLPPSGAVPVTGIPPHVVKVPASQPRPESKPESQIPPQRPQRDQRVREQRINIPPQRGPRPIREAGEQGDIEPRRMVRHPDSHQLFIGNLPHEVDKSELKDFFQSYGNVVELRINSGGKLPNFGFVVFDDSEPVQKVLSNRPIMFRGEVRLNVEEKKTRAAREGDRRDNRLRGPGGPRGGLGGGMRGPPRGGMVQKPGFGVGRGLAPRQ
Method: RNA Bind-n-Seq
Molecule type: RNA
Medium: in vitro
Tested at: 200 nM
Notes: whole 134-nt RNA, ends assumed
Added: 150 mM LiCl
Relative to: input library
Direction: higher = stronger binding
All molecules: 7-deaza-guanosine replaces G
Shared flanks, not repeated: GGGAGUUCUACAGUCCGACGAUC … UGGAAUUCUCGGGUGUCAAGG
Sequence | log2 enrichment
GCAGGAAGUAAAAACAAAAAGAAAUGCUUCGGAUAGUGGCAGGGGUGGGGGUUGCUAAGGAAAGGGUGGGAUGGGAGUGGGUAAAGAGUU | -0.0127
UGGGAGGUGGAUUUUGUUUAUUUUUUUAGCUCAUUUCCAGGGGUGGGAAUUUUUUUUUAAUAUGUGUCAUGCAUAAAGUUGUUUUUGAAA | -0.00949
AAGUCCUGUGCUACACAUCGUAUGUACCGAAUCGGGUGGGUUUUUUUGGGUUUGGGAAAGUAUUAUGUUACGCCGUUCGGAUCUGCACUU | -0.617
GCAGGAAGUAAAAACAAAUGGAAAUGCUUCGGUUAGUGGCAGGGGUGGGGGUUGCUAAGGAAAGGGUGGGAUGGGAGUGGGUAAAGAGUU | -0.0276
CCUCAAGUCCUGUGCUACACAUCGUAUGUACCGAAUCGGGUGGGUGGGGUGGGAAAGUAUUAUGUUACGCCGUUCGGAUCUGCACUUCCA | -0.733
UUUCCAAGAAGUGCACUGAAAAUGACAUCCGAGUCAUGUUCUCUUCGUUUGGACAGAUUGAAGAAUGCCGGAUAUUGCGGGGACCUGAUG | -0.757
AGUCCUGUGCUACACAUCGUAUGUACCGAAUCGGGCCCCCGGGGCCCCCGGCCCCCGGAAAGUAUUAUGUUACGCCGUUCGGAUCUGCAC | -1.4
UGGGAGGUGGAUUUUGUUUAUUUUUUUAGCUCAUUUCCAGGGGUGGGAAUUUUUUUUUAAUAUGUGUCAUGAAUAAAGUUGUUCUUGAAA | -0.215

Series 2
Target: CCND2, cyclin fold, Cln2 fusion (human)
Method: yeast growth competition, sequencing
Medium: yeast
Notes: weak parent motif
Relative to: not given
Direction: higher = stronger binding
Starting sequence: ANKRD17 docking peptide (human); PSVRRQLFVTVVK; partner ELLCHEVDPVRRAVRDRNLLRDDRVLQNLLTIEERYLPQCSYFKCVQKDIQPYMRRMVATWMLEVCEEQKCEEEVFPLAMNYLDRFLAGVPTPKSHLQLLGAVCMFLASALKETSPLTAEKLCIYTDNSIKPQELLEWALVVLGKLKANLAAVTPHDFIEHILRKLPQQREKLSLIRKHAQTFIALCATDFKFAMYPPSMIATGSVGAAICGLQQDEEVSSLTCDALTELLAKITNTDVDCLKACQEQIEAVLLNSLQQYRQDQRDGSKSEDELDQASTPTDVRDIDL
Variant | normalised enrichment score
K13A | -0.223
P1A | -0.125
R5A | 0.944
R4A | 0.205
V12A | 0.262
F8A | 0.425
R5K | -0.498

Series 3
Target: ABI1, truncated, D143A, DHFR fusion (Arabidopsis thaliana)
Method: DHFR PCA, deep sequencing
Medium: yeast
Notes: methotrexate growth selection, single substitutions
Added: (+)-ABA 0.032 µM
Relative to: wild-type fitted maximum
Direction: higher = stronger binding
Starting sequence: PYL1, truncated, DHFR fusion (Arabidopsis thaliana); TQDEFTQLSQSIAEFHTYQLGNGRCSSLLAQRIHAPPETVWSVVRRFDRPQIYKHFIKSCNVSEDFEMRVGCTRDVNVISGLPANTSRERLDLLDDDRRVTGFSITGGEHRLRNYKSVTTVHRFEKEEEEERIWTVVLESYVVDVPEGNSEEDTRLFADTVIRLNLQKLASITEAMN; partner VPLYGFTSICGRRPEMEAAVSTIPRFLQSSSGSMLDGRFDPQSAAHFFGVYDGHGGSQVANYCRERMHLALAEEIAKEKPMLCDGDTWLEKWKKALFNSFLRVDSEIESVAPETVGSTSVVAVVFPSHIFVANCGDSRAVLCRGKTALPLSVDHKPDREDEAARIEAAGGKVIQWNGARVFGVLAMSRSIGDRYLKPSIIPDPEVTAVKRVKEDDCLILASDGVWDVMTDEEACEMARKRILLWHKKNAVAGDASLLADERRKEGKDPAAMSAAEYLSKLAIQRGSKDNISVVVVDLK
Variant | relative binding score
K126P | 52.7%
T1K | 15.3%
E125K | 30.5%
D65W | 0.698%
D75M | 24.8%
V118Y | 4.05%

Single results of other studies
Substance | target | assay | system | setting | how to read | endpoint | value
PhoQ, residues 284 288 289 292 302 303 SLANIV | PhoP, residues 12 14 15 18 19 AWHSL (Escherichia coli, UniProt P23836) | Sort-seq, item: YFP reporter | E. coli | PhoQ-PhoP variant library, added: 10 µM Mg2+ | relative to: high Mg2+ state, higher = stronger signaling | fold induction | 5.8

Some of these lines once more (series 1):
Sequence | log2 enrichment
UUUCCAAGAAGUGCACUGAAAAUGACAUCCGAGUCAUGUUCUCUUCGUUUGGACAGAUUGAAGAAUGCCGGAUAUUGCGGGGACCUGAUG | -0.757
GCAGGAAGUAAAAACAAAUGGAAAUGCUUCGGUUAGUGGCAGGGGUGGGGGUUGCUAAGGAAAGGGUGGGAUGGGAGUGGGUAAAGAGUU | -0.0276
AGUCCUGUGCUACACAUCGUAUGUACCGAAUCGGGCCCCCGGGGCCCCCGGCCCCCGGAAAGUAUUAUGUUACGCCGUUCGGAUCUGCAC | -1.4
